Published values from different studies.
Numbered parts are unrelated; each lists some results of a single study. Positions count from the first letter of the parent shown.

Sample 1
Target: Prothrombin, mature alpha-thrombin (F2, Homo sapiens, UniProt P00734)
Method: aptamer microarray, sandwich
Molecule type: DNA with 2'F-ANA
Matrix: in vitro
Tested at: 200 nM
Notes: whole 15-mer aptamer, many near background
Together with: Cy3 exosite-II aptamer, 400 nM
Direction: higher = stronger binding
Endpoint: mean fluorescence intensity
Sequence: GGTTGGTGTGGTTGG
2'F-ANA at 1 2 3 8 13: 269 a.u.
2'F-ANA at 4 5 8 9 12 14 15: 50.3 a.u.
2'F-ANA at 3 4 6 11 12 13 15: 580 a.u.
2'F-ANA at 2 5 6 10 11 12 14 15: 49.2 a.u.
2'F-ANA at 3 7 9 10 12 13 15: 568 a.u.
2'F-ANA at 6 12 15: 814 a.u.
2'F-ANA at 1 4 5 14: 43.1 a.u.
2'F-ANA at 2 3 4 6 11 12 13 14: 258 a.u.
2'F-ANA at 1 2 3 4 5 6 8 13 15: 77.4 a.u.
2'F-ANA at 2 4 7 8 9 13 14 15: 94.4 a.u.
2'F-ANA at 2 3 4 8 9 10 11 14 15: 171 a.u.
2'F-ANA at 1 2 5 7: 56.7 a.u.
2'F-ANA at 1 5 7 8 10 11 12: 51.9 a.u.
2'F-ANA at 3 5 6 7 8 9 10 11 13 14 15: 56 a.u.
2'F-ANA at 1 3 5 6 7 8 9 10 12 14 15: 50.3 a.u.
2'F-ANA at 1 2 3 5 6 7 8 9 12 13: 101 a.u.
2'F-ANA at 10 12 13: 237 a.u.
2'F-ANA at 1 2 4 7 8 11 12 13: 207 a.u.
2'F-ANA at 3 5 6 7 14 15: 49.6 a.u.

Sample 2
Target: ABI1, truncated, D143A, DHFR fusion (Arabidopsis thaliana)
Method: DHFR PCA, deep sequencing
Matrix: yeast
Notes: methotrexate growth selection, single substitutions
Together with: (+)-ABA 0.0091 µM
Reference: wild-type fitted maximum
Direction: higher = stronger binding
Endpoint: relative binding score
Starting sequence: PYL1, truncated, DHFR fusion (Arabidopsis thaliana); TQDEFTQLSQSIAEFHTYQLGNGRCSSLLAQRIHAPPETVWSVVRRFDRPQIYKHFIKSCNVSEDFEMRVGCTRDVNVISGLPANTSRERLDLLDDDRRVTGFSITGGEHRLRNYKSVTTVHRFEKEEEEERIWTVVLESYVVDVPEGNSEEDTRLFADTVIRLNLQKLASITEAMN; partner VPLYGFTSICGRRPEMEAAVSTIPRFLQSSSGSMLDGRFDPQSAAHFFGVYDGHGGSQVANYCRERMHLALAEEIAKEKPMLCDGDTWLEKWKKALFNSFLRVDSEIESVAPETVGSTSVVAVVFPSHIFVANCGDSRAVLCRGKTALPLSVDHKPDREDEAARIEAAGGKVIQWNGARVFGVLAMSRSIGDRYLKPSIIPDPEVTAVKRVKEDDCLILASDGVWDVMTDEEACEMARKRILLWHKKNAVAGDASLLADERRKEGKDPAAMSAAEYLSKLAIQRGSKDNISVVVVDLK
N177K: 21.3%
I12M: 1.66%
G108C: 0.78%
V62R: -0.124%
L166T: 1.05%
V137K: 3.9%
W41Y: -9.75%
T1Y: 22.2%
E174M: -3.14%
I57V: 13.3%
E139Q: 16.7%
F47D: -0.383%
Q167D: 1.1%
T17A: 8.81%
E64I: 1.77%
S26F: 1.44%
E89T: 2.74%

Sample 3
Target: Ras GTPase-activating protein-binding protein 1, full length (G3BP1, Homo sapiens, UniProt Q13283)
UniProt Q13283, sequence (whole entry, looked up): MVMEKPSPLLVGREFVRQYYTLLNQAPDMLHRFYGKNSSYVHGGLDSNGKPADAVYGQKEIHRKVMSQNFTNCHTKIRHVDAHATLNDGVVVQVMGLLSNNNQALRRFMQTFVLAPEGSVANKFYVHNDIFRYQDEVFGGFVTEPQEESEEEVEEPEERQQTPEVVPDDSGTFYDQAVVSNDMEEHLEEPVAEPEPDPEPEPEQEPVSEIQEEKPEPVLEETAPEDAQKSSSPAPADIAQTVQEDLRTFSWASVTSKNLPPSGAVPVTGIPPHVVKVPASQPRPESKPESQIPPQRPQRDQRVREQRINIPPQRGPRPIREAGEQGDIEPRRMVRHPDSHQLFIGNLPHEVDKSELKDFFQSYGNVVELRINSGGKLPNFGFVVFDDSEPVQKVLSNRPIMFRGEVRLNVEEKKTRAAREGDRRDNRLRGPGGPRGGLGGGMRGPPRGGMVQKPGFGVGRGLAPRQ
Method: RNA Bind-n-Seq
Molecule type: RNA
Matrix: in vitro
Tested at: 200 nM
Notes: whole 134-nt RNA, ends assumed
Together with: 150 mM KCl
Reference: input library
Direction: higher = stronger binding
Endpoint: log2 enrichment
Shared flanks, not repeated: GGGAGUUCUACAGUCCGACGAUC … UGGAAUUCUCGGGUGUCAAGG
CAAGUCCUGUGCUACACAUCGUAUGUACCGAAUCGGGGCCCGGGCCCGGGGCCCGGAAAGUAUUAUGUUACGCCGUUCGGAUCUGCACUU: -0.8
CCUGUGCUACACAUCGUAUGUACCGAAUCGGGGUUUUUUUGGGGAAAAAGGGGAAAGGGGAAAGUAUUAUGUUACGCCGUUCGGAUCUGC: 0.216
GUCCUGUGCUACACAUCGUAUGUACCGAAUCGGCCCCCCGGGCCCCCCGGCCCCCCGGAAAGUAUUAUGUUACGCCGUUCGGAUCUGCAC: -0.025
AAGUCCUGUGCUACACAUCGUAUGUACCGAAUCGGGGUGGGGUUUUUGGGGAGGGGAAAGUAUUAUGUUACGCCGUUCGGAUCUGCACUU: 0.499
UCAAGUCCUGUGCUACACAUCGUAUGUACCGAAUCGGGGCCGGGGCCGGGCCGGGAAAGUAUUAUGUUACGCCGUUCGGAUCUGCACUUC: -0.249
AAGUCCUGUGCUACACAUCGUAUGUACCGAAUCGGAAAAGGGAAAAGGGGAAAAGGGAAAGUAUUAUGUUACGCCGUUCGGAUCUGCACU: -0.532
CAAGUCCUGUGCUACACAUCGUAUGUACCGAAUCGGGGAAAGGGGUGGGGAGGGGAAAGUAUUAUGUUACGCCGUUCGGAUCUGCACUUC: 1.39
AGUCCUGUGCUACACAUCGUAUGUACCGAAUCGGGAAAAAGGAAAAAGGGAAAAAGGGAAAGUAUUAUGUUACGCCGUUCGGAUCUGCAC: -0.786
UAACUUUAGAGGAGGAUCUGAUGGAUAUGGCAGUGGACGUGGAUUUAGGGAUGGCUAUAAUGGGUAUGGAGGAGGACCUGGAGGUGGCAA: 0.407
AGUCCUGUGCUACACAUCGUAUGUACCGAAUCGGGGAAAGGGGUUUUUGGGGUGGGGAAAGUAUUAUGUUACGCCGUUCGGAUCUGCACU: 0.536
CAAGUCCUGUGCUACACAUCGUAUGUACCGAAUCGGGAAAAAGGGUGGGAAAGGGAAAGUAUUAUGUUACGCCGUUCGGAUCUGCACUUC: 0.649
UAACUGUAGAGGAGGAUCUGAUGGAUAUGGCAGUGGACGUGGAUUUGGGGAUGGCUAUAAUGGGUAUGGAGGAGGACCUGGAGGUGGCAA: 0.559
AGUCCUGUGCUACACAUCGUAUGUACCGAAUCGGGUUUUUGGGUUUGGGAAAAAGGGAAAGUAUUAUGUUACGCCGUUCGGAUCUGCACU: -0.445
AGUCCUGUGCUACACAUCGUAUGUACCGAAUCGGGUUUGGGUUUGGGAAAAAAAGGGAAAGUAUUAUGUUACGCCGUUCGGAUCUGCACU: -0.444

Sample 4
Target: RING finger protein unkempt homolog, zinc fingers 1-6, GST-SBP tag (UNK, Homo sapiens, UniProt Q9C0B0, residues 30-357)
Method: RNA Bind-n-Seq
Molecule type: RNA
Matrix: in vitro
Tested at: not given
Notes: RNA with constant flanks, human and mouse sites, ends assumed
Reference: input RNA pool
Direction: higher = stronger binding
Endpoint: bound/input enrichment
Shared flanks, not repeated: GGGAGUUCUACAGUCCGACGAUC … CAACAGAGGAUUGAGCAUCA
Construct (chain): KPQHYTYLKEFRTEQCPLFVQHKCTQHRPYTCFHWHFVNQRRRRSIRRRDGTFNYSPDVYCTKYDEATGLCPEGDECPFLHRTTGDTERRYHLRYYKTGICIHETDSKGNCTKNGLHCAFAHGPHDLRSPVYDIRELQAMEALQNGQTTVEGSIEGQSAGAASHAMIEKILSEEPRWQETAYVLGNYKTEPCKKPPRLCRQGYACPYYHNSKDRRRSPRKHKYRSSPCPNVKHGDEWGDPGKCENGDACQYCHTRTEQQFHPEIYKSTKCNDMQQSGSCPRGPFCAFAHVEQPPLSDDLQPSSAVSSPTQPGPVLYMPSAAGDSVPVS
AAUGAAAUUUAUGUUGCUGGUAUUUUGCAUUUUAAAGUGAUCAAGAUUCAUUAGGCAAACUUUGGUUUAAGUAAACAUAUGUUCAAAAUCAGAUUAACAGAUACAGGUUUCAUAGAGAAC: 0.258 ratio
GAGAAAGAAAUCCCACCAAAGGAGAUGGAGAAAUCAAAAAUUAAACGACUGUAUAAAUUAUUAGAGAUCUGGAUCGAGUUUGGGCGCAUCAAACUCCUUCAAGGUUAUCAUCCGAACGAC: 0.429 ratio
UUUAGUGACUAUGGUAAGCUUUUGUUCAUUUGUUUCAGACUUUUUUCUCCUGUAAAAAAAUAGUACUGAUUAACUUUUUUAAAAGAAAGAUUUUACUGUAAAUAUGGAUUUUUUUUUUUU: 7.16 ratio
UAGGAAGCAAAUGUCUAUUUCCAAAGCAAUGAGCUUGUUGUGACUGUGAUUUUAUUCUUCUAUAGUAUUUUUUUCCUCAUUUUAACUGAGAGGAGAAAAUAAUACUCUUUUGCAAUAUCC: 0.268 ratio
UCUCUACCUCACCUCAGUGGUCAGGGCUGCCUCCACCCAGCAUUGGAAGAGGUCAUUGUGAAUAGAAUAGUUGAUGUGCUCAGCUGUUCACUGAACCCCUGAGCAUGAGUUGAACAUAGA: 3.81 ratio
GCCUUCUUCAGCACCCGCCUGAUCGAGGCCGGCGAGCAGCUCGGGUUUGACUAUGGAGAGCGCUUCUGGGACAUCAAAGGCAAGCUCUUCAGCUGCCGCUGCGGCUCCCCCAAGUGCCGG: 0.116 ratio
UGCUAAAUUUGCAGCUUGCUAAUUCCUCCUGCUUUCUCCUUCCUUCCUUCUUCUGGCUCACUCCCUGCCCCGAUACCAAAGUCUGGUUUAUAUUCAGUGCAAAUUGGAGCAAACCCUACC: 0.307 ratio
AGGUCUGACCGAGUUAAGAGCGUGGAUUUGCAUCCCACAGAGCCAUGGAUGUUGGCUAGUCUUUACAAUGGCAGUGUGUGUGUUUGGAAUCAUGAAACUCAGACACUGGUGAAGACGUUU: 0.102 ratio
UGCUGUAGGUUAUUUUAUAAAGAUGCCAAAGGAAACAAGUUUUUCUUUAUUUAUUUUAAGUAGCUAAAACUUUGUACUGUUCUUUAUAUUCUCAGAUAAGAAGGAAAUGUGUGAAAUAAC: 0.414 ratio
AACUCCUGUGAUGAACACAUGGAGCUUGAUGACCUUCCUGAACUUCAGGCAGUUCAAAGUGAUCCUACCCAAUCUGGCAUGUACCAGCUGAGUUCAGAUGUUUCACAUCAAGAAUACCCA: 0.0916 ratio
CGCCGUGGUGGCCGUUAAACGGUCUCAGAGCGGAGCUAUCGGUUGUCUGCGGCCGUAGUGAGCUUUGCUUCGUUUCCUGAAGAUGGAGGGUCCUUUGUCCGUGUUCGGGGACCGCAGCAC: 0.0654 ratio

Sample 5
Target: CCND1, cyclin fold, Cln2 fusion (human)
Method: yeast growth competition, sequencing
Matrix: yeast
Notes: weak parent motif
Reference: not given
Direction: higher = stronger binding
Endpoint: normalised enrichment score
Starting sequence: CDKN1C docking peptide (human); TSACRSLFGPVDH
P10A: 0.91
R5K: 0.106
F8L: -0.129
S6A: 1.45
D12A: 0.377
R5A L7A: 0.068
T1A: 0.865
G9A: 0.878
L7A: 0.00461

Sample 6
Target: NFE2L3, bZIP domain (human)
Method: DHFR protein complementation
Matrix: yeast
Notes: single substitutions, most at no-binding floor
Reference: wild-type JUN-FOS pair
Direction: higher = stronger binding
Endpoint: binding fitness
Starting sequence: JUN, bZIP domain (human); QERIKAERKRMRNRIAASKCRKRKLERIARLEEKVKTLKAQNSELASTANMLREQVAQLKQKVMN; partner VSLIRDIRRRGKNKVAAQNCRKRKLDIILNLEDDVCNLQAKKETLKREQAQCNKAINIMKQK
I28Q: -1.46 natural log
K39A: -1.57 natural log
R53K: -1.15 natural log
E32D: -1.51 natural log
A49E: -1.52 natural log
V35G: -1.49 natural log
V35K: -1.52 natural log
R53Q: -1.5 natural log
A49T: -1.46 natural log
K34M: -1.5 natural log
L38S: -1.53 natural log
L59R: -1.47 natural log
L45K: -1.55 natural log
L31Y: -1.47 natural log
L38K: -1.53 natural log
S43F: -1.44 natural log
E54A: -1.36 natural log
A40M: -1.39 natural log
T37S: -1.43 natural log
L52E: -1.5 natural log

Single results of other studies
PhoQ, residues 284 288 289 292 302 303 ALSMDL
fold induction (PhoP, residues 12 14 15 18 19 NFCKL (Escherichia coli, UniProt P23836); Sort-seq, measured: YFP reporter; E. coli; PhoQ-PhoP variant library, together with: 10 µM Mg2+; reference: high Mg2+ state, higher = stronger signaling): 18.1
